# Experimental data of several laboratories.
# Lines come from different studies, so protocols differ. ± marks the error that the study gave.
SMILES,test,system,setting,how to read,endpoint,result
COc1ccc(CCNc2ncnc3sc(C)cc23)cc1OC,measured: Ki67,mouse LNCaP xenograft,"intraperitoneal, 2.6 mg/kg daily",,tumour cell proliferation,decreased
NC(=O)c1cccnc1.O.O=c1[nH]cc(F)c(=O)[nH]1.O=c1[nH]cc(F)c(=O)[nH]1.O=c1[nH]cc(F)c(=O)[nH]1,,nude mouse HCT-116 xenograft,"0.006 mmol/kg/day, 21 days",,tumour weight,0.62 ± 0.15 g
C[C@@H](O)[C@H](NC(=O)[C@@H]1CSSC[C@H](NC(=O)[C@@H](Cc2ccccc2)NC(=O)CCNC(=S)Nc2ccc(C[C@H]3CN(CC(=O)O)CCN(CC(=O)O)CCN3CC(=O)O)cc2)C(=O)N[C@@H](Cc2ccc(O)cc2)C(=O)N[C@H](Cc2c[nH]c3ccccc23)C(=O)N[C@@H](CCCCN)C(=O)N[C@@H]([C@@H](C)O)C(=O)N1)C(=O)O [copper-64 labelled],,"HCT116-SSTR2, NCr nude mouse female xenograft","dose not given, 4 h, 64Cu-labelled, together with: Y3-TATE 50 µg, 30 min prior",,tumour uptake decrease,76%
CCN(C(=O)c1cc(F)ccc1Oc1nncnc1N1CCC2(C1)CN([C@H](CCCN(C)CCOC)C(C)C)C2)C(C)C,,"mouse, subcutaneous MOLM-14 AML xenograft","oral, 100 mg/kg daily, 5 weeks",,tumour regression,99%
CO.Cc1ccc2c(Cl)cc(Cl)c([O-])c2n1.Cc1ccc2c(Cl)cc(Cl)c([O-])c2n1.[Co+2].c1ccc2nc3c4cccnc4c4ncccc4c3nc2c1,,"HeLa xenograft, nude mouse",2.0 mg/kg every 2 days,relative to: cisplatin,tumour growth reduction,~1.3 fold
CCc1cnc(NC(=O)c2cc(S(=O)(=O)N3CCOCC3)ccc2N(C)C2CCCC2)s1,,"mouse, H1975-OR xenograft","intraperitoneal, 10 mg/kg every other day, day 55",,tumour volume,190 ± 37 mm³
C[C@H](NC(=O)CNC(=O)[C@H](CCC(=O)O)NC(=O)[C@H](CCC(=O)O)NC(=O)[C@H](CC(=O)O)NC(=O)[C@@H]1CCCN1C(=O)[C@H](Cc1ccccc1)NC(=O)[C@H](CS)NC(=O)[C@H](Cc1ccc(O)cc1)NC(=O)CCCNC(=O)CNC(=O)CNC(=O)[C@@H](C)NC(=O)CN)C(=O)N[C@@H](CS)C(=O)N[C@@H](Cc1ccc(O)cc1)C(N)=O [technetium-99m labelled],SPECT,"BALB/c nude mouse, SKBR3 tumour","intravenous, 37 MBq, 180 min",,tumour to non-tumour ratio,4.07
Clc1ccc2ccc3[n+](c2c1)[Ir-3]12([c]4ccccc4-3)([c]3ccccc3-c3ccc4ccc(Cl)cc4[n+]31)[n+]1ccccc1-c1cccc[n+]12.F[P-](F)(F)(F)(F)F,,"BALB/c mouse, 4T1 allograft","intraperitoneal, 4 mg/kg daily, 18 days",,tumour weight reduction,51.7%
COc1ccc2nc(NC(=O)c3ccc(C(N)c4ccccc4)cc3)sc2c1 (centres unmarked),,Nod-Scid mouse H1155 xenograft,"intraperitoneal, 25 mg/kg twice daily, 10 to 15 days",,tumour growth,no effect
C=CC(=O)N1CCCC(n2c(=O)c3ncccc3n(Cc3ccc(Oc4ccccc4)cc3)c2=O)C1 (centres unmarked),,"mouse, Rec1 xenograft","intraperitoneal, 200 mg/kg, day 9",relative to: control over treated,tumour weight ratio,2.2 fold
C=CC(=O)N1C[C@H](C)N(c2nc(OC[C@@]34CCCN3C[C@H](F)C4)nc3c(F)c(-c4ccc(F)c5sc(N)c(C#N)c45)c(C(F)(F)F)cc23)C[C@H]1C,,"NCI-H358 xenograft, mouse","oral, 10 mg/kg once daily, 28 days",,tumour regression,100%
C#CCCCC(O)/C=C/C(=O)NC1(c2ccc(-c3nc4ccn5c(=O)[nH]nc5c4cc3-c3ccccc3)cc2)CCC1 (centres unmarked),,"mouse, MDA-MB-468 xenograft","oral, 200 mg/kg twice weekly",relative to: DMSO vehicle,tumour growth suppression,31%
CN1Cc2cnc3ccc(-c4ccc(N)nc4)nc3c2N(c2cccc(C(F)(F)F)c2)C1=O,,"PC-3 xenograft, mouse","oral, 30 mg/kg once daily, 14 days",,tumour growth inhibition,59.7%
CC1OC(Oc2c(-c3ccc(O)cc3)oc3cc(O)cc(O)c3c2=O)C(OC(=O)C=Cc2ccc(O)cc2)C(O)C1OC(=O)C=Cc1ccc(O)cc1 (centres unmarked),,"mouse C57BL/6, orthotopic Hepa1-6","ip, 50 or 100 mg/kg, outcome inhibited",,tumour growth,inhibited
CS(=O)(=O)c1sc(NC(=O)Nc2ccc(Cl)cc2)c2c1C=CCC2,,"MIA PaCa-2 xenograft, mouse","intraperitoneal, 50 mg/kg daily, 28 days",,tumour volume,225 ± 53.6 mm³
Clc1ccc(NN=C(c2ccccc2)c2ccccn2)nc1,,"nude mouse, A549 xenograft","oral gavage, 55 mg/kg, Cremophor EL vehicle",relative to: vehicle,tumour growth rate,decreased
C#CCCCC(F)/C=C/C(=O)NC1(c2ccc(-c3nc4ccn5c(=O)[nH]nc5c4cc3-c3ccccc3)cc2)CCC1 (centres unmarked),,"mouse, MDA-MB-468 xenograft","oral, 200 mg/kg twice weekly",relative to: DMSO vehicle,tumour growth suppression,26%
COc1cccc2c1C(=O)c1c(O)c3c(c(O)c1C2=O)CC(O)(C(=O)CO)CC3OC1CC(NC(=O)C[C@H](N)C(=O)O)C(O)C(C)O1 (some centres unmarked),,"mouse, HepG2 xenograft","intravenous, 5 mg/kg twice weekly, 21 days",,tumour volume,710 ± 105 mm³
CC=C1C(OC2OC(CO)C(O)C(O)C2O)OC=C(C(=O)OC)C1CC(=O)OCC1OC(OCCc2ccc(O)cc2)C(O)C(O)C1O (centres unmarked),,"BALB/c mouse, orthotopic colon 26 tumour","oral, 109.2 mg/kg daily, 10 days",relative to: untreated tumour group,tumour to body weight ratio decrease,30.8%
CN1CCN(C(=O)N(CCCCCCC(=O)NO)c2ccc(-c3ccc4cnn(C)c4c3)cc2)CC1,,"NOD.CB17 SCID mouse, MM.1S xenograft","intraperitoneal, 40 and 60 mg/kg twice weekly",relative to: vehicle,tumour size,decreased
COc1ccc2c(c1)CCn1c[n+]3c(c1-2)-c1ccc(OC)cc1CC3,tumour growth,"NSG mouse, MDA-MB-231 orthotopic xenograft","intraperitoneal, 6 mg/kg, 5 days/week",relative to: vehicle,tumour weight,decreased
C[C@@H](O)[C@H](NC(=O)[C@@H]1CSSC[C@H](NC(=O)[C@@H](Cc2ccccc2)NC(=O)CCC(C(=O)O)N2CCN(CC(=O)O)CCN(CC(=O)O)CC2)C(=O)N[C@@H](Cc2ccc(O)cc2)C(=O)N[C@H](Cc2c[nH]c3ccccc23)C(=O)N[C@@H](CCCCN)C(=O)N[C@@H]([C@@H](C)O)C(=O)N1)C(=O)O (some centres unmarked) [copper-64 labelled],,"HCT116-SSTR2, NCr nude mouse female xenograft","dose not given, 4 h, 64Cu-labelled, together with: Y3-TATE 50 µg, 30 min prior",,tumour uptake decrease,90%
Cc1cc(O)cc(O)c1C(=O)c1c2c3c(c(O)cc(C)c3oc1=O)C(=O)c1c(O)cc(O)cc1-2,,"H22 subcutaneous, mouse","intraperitoneal, 45 mg/kg daily",,tumour growth inhibition,66%
CC(=O)[CH](C(C)=O)[Pt-2]1([S+](C)C)[O]C(C)=CC(C)=[O+]1 (centres unmarked),,"MCF7, BALB/c nude mouse xenograft",dose not given,,tumour mass reduction,≤ 50%
O=c1[nH]c(N2CCC3(CC2)CN(CCO)c2cc(F)cc(F)c23)nc2c1CCCC2,,"mouse, COLO 320DM xenograft","oral, 300 mg/kg twice daily, 11 days",,tumour growth inhibition,51.9%
CCCCCCCCCCCCCC(=O)N1CCC[C@H]1C(=O)N[C@@H](CO)C(=O)N[C@@H](CCC(N)=O)C(=O)N[C@@H](CO)C(=O)N[C@@H](CCCCNC(=O)c1ccc(Br)cc1)C(=O)N[C@@H](CO)C(=O)N[C@@H](CCCCNC(=O)c1ccc(Br)cc1)C(=O)N[C@@H](C)C(=O)O,,"female SCID mouse, AsPC-1 GFP/luciferase xenograft","intratumoral, dose not given, alternate days for one month",relative to: DMSO-PBS vehicle,tumour regression,4.8 fold

# Repeated from above:
SMILES,test,system,setting,how to read,endpoint,result
CN1CCN(C(=O)N(CCCCCCC(=O)NO)c2ccc(-c3ccc4cnn(C)c4c3)cc2)CC1,,"NOD.CB17 SCID mouse, MM.1S xenograft","intraperitoneal, 40 and 60 mg/kg twice weekly",relative to: vehicle,tumour size,decreased
